Results collected from several papers.
Values joined by “and” are separate records of one study, mostly repeats; a detail may differ. ± marks the error that the study gave.

SMILES	test	test system	setting	how to read	endpoint	result
CCN1CCN(Cc2ccc(Nc3ncc(F)c(-c4cc(F)c5nc6n(c5c4)[C@H](C)CCC6)n3)nc2)CC1	RECIST v1.1	advanced solid tumour patients	dose not given, Phase Ia monotherapy	–	CR	0%
CN[C@@H]1COc2c(S(=O)(=O)NC(=O)Nc3c4c(cc5c3CCC5)CCC4)cnn2C1	item: IL-1β	human participants, whole blood ex vivo	900 mg twice daily, multiple doses, 145 h, together with: LPS/ATP	reference: baseline	inhibition	99.9%
Cn1cc(Nc2nccc(-c3ccc4c(c3)CN(C3COC3)CC[C@H]4NC(=O)c3cn(C(C)(C)C)nn3)n2)cn1	item: tRNA Charging	splenic B cells, mouse	in vivo, 30 mg/kg, IgD-activated B cells	reference: vehicle, positive = activation	pathway activation z-score	-3.21
O=C1O[C@H]([C@@H](O)CO)C(O)=C1O	superoxide scavenging	–	120 µM	–	inhibition	55.6%
NC(=O)c1cnc2[nH]ccc2c1N[C@@H]1[C@@H]2CC3C[C@H]1C[C@@](O)(C3)C2	flow cytometry, item: memory T cells (CD3+ CD45RA-)	Japanese healthy subjects, peripheral blood	oral, 100 mg twice daily, day 7	–	change from baseline	-0.02%
CCCCCN1C[C@H](O)[C@@H](O)[C@H](O)[C@@H]1CO	–	Hexb-/- mouse, cerebral cortex	300 mg/kg/day, unit not given	reference: 30 mg/kg/day	decreased sphingolipid species	24
COc1cc(-c2ccccc2)ncc1C(=O)Nc1ccc2c(=O)[nH]c(-c3ccc(C(C)(C)O)cc3)nc2c1	RNA-seq GSEA, item: HALLMARK_MYC_TARGETS_V1	organoids, small intestinal, Apc Q1405X, mouse	dose not given, wild-type organoids	reference: DMSO, direction not given	normalized enrichment score	-1
N#Cc1ccc2c(c1)[C@H]1CCCN(C(=O)c3ccc4[nH]cnc4c3)[C@H]1C2	item: Triglycerides	human	20 mg once daily, day 28, adjusted mean	–	change from baseline	-6.2 mg/dL
Cn1cc([C@H]2C[C@H]3CSC(N)=N[C@@]3(c3ccc(F)cc3F)CO2)cn1	item: Aβx-40	Mus musculus wild-type, cerebrospinal fluid	subcutaneous, 50 mg/kg, 3 h	–	Aβ40 level	0.25 ng/mL
CCc1c(C)nc(-c2ccc(Cl)s2)nc1Nc1ccc(CC(=O)O)cc1	–	C57BL/6J mice, high-fat diet	intraperitoneal, 0.3 mg/kg daily, 60% fat diet 12 weeks, dosed last four	reference: vehicle	fasting blood glucose	decreased
CC(C)NCC(O)c1ccc(O)c(O)c1 (centres unmarked)	–	ventricular cardiomyocytes, C57BL/6 mouse	dose not given, 0.756 s	–	sarcomere length	1.72 µm
N#Cc1ccc2c(-c3ccncc3)c(-c3ccc(F)cc3)nn2c1	kinase binding, competitor, MIB/MS competition, item: AKL1	Candida albicans cell lysate	100 nM	reference: DMSO	log2 fold change	0.158
COc1ccc2c(c1)CN(Cc1ccc(C(=O)O)cc1)CCS2	–	exercised mdx mice	50 mg/kg, 1 weeks	–	forelimb grip strength	0.153 ± 0.007 kgf
CN(C)C(=O)Oc1cccc([N+](C)(C)C)c1	neuromuscular block reversal	rat	dose not given, 4 (unit not given), together with: cisatracurium	reference: T1 twitch	train-of-four ratio	8.16
C[C@H](CS)C(=O)N1CCC[C@H]1C(=O)O	LC-MS/MS, item: extracellular Leu-enkephalin	mouse striatal brain slices	10 µM, 20 min, together with: 50 mM KCl	–	Leu-enkephalin concentration	619 pM and 792 pM and 1600 pM and 1360 pM and 998 pM and 741 pM
COc1ccc(-c2cncc(N[C@@H](C)c3cccc(NC(=O)c4cncc(C)c4)c3)n2)cc1OC	item: rno-miR-33-5p	rat SU5416/hypoxia model, lung	dose not given	reference: SU5416/hypoxia vehicle	fold change	0.387
CNCc1cc(-c2ccccc2F)n(S(=O)(=O)c2cccnc2)c1	esophageal lesions	rat reflux esophagitis model	oral, 0.5 mg/kg	–	inhibition	16.7%
